Published values collected from several papers.
A part holds a random share of what one study measured.
UniProt P08588, sequence (whole entry, looked up): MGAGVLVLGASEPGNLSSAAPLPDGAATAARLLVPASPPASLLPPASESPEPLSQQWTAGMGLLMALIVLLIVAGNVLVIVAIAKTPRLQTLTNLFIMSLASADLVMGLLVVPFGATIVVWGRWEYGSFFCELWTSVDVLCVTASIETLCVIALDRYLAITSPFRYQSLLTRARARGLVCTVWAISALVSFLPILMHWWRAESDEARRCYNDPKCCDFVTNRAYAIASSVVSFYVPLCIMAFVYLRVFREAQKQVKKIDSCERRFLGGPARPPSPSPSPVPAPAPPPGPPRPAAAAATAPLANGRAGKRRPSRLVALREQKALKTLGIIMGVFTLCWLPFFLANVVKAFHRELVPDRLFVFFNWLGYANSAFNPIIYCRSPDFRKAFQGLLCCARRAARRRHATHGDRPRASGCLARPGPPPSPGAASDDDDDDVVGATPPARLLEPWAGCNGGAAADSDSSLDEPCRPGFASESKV
UniProt Q5BJF2, sequence (whole entry, looked up): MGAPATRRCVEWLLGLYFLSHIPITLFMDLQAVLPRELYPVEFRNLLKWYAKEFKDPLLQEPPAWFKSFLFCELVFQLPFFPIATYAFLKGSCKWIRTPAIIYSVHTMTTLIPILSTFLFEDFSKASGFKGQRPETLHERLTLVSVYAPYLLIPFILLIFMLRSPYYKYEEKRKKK
UniProt P35462, sequence (whole entry, looked up): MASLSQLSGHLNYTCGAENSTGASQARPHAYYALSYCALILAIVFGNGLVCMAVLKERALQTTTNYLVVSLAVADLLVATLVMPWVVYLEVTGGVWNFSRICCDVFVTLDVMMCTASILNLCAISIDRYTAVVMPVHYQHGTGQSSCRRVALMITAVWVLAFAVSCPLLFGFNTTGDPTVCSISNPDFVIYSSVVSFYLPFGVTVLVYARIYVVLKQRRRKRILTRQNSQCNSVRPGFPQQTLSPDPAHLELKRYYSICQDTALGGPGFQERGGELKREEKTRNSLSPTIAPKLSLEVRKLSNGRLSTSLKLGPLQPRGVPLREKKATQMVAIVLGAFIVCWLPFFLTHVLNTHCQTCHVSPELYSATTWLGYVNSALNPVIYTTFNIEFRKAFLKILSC
UniProt P07550, sequence (whole entry, looked up): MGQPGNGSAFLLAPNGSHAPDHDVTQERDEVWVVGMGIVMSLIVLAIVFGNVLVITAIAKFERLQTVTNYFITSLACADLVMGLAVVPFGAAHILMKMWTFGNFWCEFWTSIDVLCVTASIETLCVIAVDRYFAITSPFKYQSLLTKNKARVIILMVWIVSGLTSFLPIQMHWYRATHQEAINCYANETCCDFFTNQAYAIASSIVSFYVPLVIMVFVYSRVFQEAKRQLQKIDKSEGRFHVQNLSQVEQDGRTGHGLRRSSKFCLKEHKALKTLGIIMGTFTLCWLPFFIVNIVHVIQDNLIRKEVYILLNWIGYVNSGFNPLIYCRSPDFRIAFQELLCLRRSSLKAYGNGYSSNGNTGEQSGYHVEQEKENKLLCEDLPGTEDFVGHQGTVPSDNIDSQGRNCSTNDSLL
UniProt P28222, sequence (whole entry, looked up): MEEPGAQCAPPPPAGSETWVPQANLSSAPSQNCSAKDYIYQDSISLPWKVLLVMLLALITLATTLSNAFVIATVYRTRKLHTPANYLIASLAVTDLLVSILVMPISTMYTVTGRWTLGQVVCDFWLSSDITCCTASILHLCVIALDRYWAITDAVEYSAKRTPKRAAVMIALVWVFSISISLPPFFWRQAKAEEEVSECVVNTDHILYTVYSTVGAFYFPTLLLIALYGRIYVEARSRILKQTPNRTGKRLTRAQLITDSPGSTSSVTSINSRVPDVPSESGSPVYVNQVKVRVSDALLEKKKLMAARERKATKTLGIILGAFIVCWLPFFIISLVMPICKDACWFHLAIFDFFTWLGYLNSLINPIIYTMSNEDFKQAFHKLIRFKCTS
UniProt P28221, sequence (whole entry, looked up): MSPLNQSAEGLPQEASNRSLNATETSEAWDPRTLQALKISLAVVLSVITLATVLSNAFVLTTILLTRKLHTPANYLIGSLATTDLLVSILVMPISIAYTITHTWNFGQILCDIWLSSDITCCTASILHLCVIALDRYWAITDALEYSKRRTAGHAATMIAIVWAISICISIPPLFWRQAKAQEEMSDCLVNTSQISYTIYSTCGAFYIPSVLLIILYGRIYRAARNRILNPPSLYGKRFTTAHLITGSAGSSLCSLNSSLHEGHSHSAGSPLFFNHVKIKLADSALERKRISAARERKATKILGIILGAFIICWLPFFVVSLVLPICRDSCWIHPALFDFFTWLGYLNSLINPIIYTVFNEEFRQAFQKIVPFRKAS
UniProt P14416, sequence (whole entry, looked up): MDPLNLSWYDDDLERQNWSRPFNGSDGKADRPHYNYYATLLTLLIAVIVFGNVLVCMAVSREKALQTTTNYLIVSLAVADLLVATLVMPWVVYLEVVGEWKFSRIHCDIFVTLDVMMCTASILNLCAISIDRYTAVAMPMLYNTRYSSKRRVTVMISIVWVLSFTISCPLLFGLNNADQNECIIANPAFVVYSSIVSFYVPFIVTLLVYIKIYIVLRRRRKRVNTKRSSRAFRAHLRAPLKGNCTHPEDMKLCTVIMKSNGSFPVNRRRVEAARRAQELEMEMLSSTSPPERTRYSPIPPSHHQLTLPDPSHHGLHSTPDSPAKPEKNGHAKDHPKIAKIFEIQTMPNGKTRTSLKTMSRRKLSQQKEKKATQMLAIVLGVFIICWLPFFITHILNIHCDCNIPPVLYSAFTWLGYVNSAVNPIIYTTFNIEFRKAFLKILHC
UniProt P08913, sequence (whole entry, looked up): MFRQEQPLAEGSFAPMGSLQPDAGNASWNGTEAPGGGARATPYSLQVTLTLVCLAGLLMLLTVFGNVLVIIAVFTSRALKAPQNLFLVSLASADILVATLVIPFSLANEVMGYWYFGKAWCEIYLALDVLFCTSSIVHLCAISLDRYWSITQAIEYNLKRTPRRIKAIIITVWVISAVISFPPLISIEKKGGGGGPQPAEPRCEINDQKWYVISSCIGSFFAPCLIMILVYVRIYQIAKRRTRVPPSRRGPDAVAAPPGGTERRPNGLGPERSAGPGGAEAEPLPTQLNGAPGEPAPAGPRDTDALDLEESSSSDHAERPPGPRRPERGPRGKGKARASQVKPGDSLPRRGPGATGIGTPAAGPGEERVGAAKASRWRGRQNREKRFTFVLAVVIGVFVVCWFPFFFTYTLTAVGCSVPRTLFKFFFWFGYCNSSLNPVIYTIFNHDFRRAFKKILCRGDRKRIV

Block 1
Cell line: A-375
Concentration: 100 µM
Time: 18 h
For `CN(Cc1ccc(C(C)(C)C)cc1)Cc1cccc2ccccc12`, the viability was 32.2%.
`Cc1nccnc1N1CCCCC1` has a viability of 82.9%.
`C[N+]1(C)[C@@H]2CC[C@H]1C[C@@H](OC(=O)C(O)c1ccccc1)C2` (stereo partly shown) gave a viability of 89.7%.
`CN(C)[C@@H]1C(O)=C(C(N)=O)C(=O)[C@@]2(O)C(O)=C3C(=O)c4c(O)ccc(Cl)c4[C@@H](O)[C@H]3C[C@@H]12` gave a viability of 102%.
`CN(C)/N=N/c1[nH]cnc1C(N)=O` gave a viability of 77.5%.

Block 2
SMILES: CNC(=O)c1cc(C(=O)N[C@H]2[C@@H]3COC[C@@H]32)cc2c1O[C@@H](CF)[C@@H]2c1ccccc1
Effect on: binding
Technique: radioligand binding
Concentration: 10 µM
TMEM97 (Homo sapiens, UniProt Q5BJF2) — inhibition: 35.6%.
It gave -10.2% for inhibition (DRD2 (Homo sapiens, UniProt P14416)).
HTR1B (Homo sapiens, UniProt P28222) — inhibition: -8.28%.
For ADRB2 (Homo sapiens, UniProt P07550): inhibition read 9.35%.
HTR1D (Homo sapiens, UniProt P28221) — inhibition: -8.07%.
It gave 6.93% for inhibition (ADRB1 (Homo sapiens, UniProt P08588)).
The inhibition was 13.8% (ADRA2A (Homo sapiens, UniProt P08913)).
The inhibition was 4.11% (DRD3 (Homo sapiens, UniProt P35462)).

Block 3
Target: Serine/threonine-protein kinase Sgk1 (SGK1, Homo sapiens, UniProt O00141)
Effect on: enzyme activity
Action: inhibitor
Concentration: 0.5 µM
Reference: control
Target sequence (O00141 1-431): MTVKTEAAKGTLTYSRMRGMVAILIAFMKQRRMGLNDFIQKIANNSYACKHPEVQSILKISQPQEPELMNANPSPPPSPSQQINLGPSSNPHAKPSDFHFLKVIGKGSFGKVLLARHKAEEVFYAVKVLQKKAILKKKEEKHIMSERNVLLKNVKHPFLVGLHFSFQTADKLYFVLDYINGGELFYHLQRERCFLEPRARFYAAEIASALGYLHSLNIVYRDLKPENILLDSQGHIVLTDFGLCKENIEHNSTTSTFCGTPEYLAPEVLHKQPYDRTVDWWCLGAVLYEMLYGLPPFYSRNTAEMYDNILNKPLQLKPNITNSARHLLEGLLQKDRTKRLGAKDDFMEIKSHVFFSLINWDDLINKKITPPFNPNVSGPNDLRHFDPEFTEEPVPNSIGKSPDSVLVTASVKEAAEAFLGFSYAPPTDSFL
The remaining activity of `COc1cc2ncnc(Nc3ccc(F)c(Cl)c3)c2cc1OCCCN1CCOCC1` is reported as 131%.
`COc1ccc(OC)c2c(=S)c3ccccc3[nH]c12` has a remaining activity of 125%.
The remaining activity of `CCOC(=O)c1c(C)[nH]c(/C=C2\C(=O)Nc3ccccc32)c1C` is reported as 92%.
`OCC(O)CCON=C1C(c2c(O)[nH]c3ccccc23)=Nc2ccccc21` (stereo not shown) gave a remaining activity of 51%.
`COc1cc2nccc(Oc3ccc(NC(=S)NC(=O)c4ccccc4C)cc3)c2cc1OC` gave a remaining activity of 101%.
The remaining activity of `O=C(CCCc1ccc(-c2ccccc2F)cc1)Nc1ccc(O)cc1` is reported as 103%.
The remaining activity of `O=c1c2ccccc2[nH]c(=S)n1CCN1CCC(=C(c2ccc(F)cc2)c2ccc(F)cc2)CC1` is reported as 96%.
`Cc1cccc(-c2[nH]c(C(C)(C)C)nc2-c2ccc3c(c2)OCO3)n1` has a remaining activity of 99.6%.
`Cc1ccc(Nc2nccc(N(C)c3ccc4c(C)n(C)nc4c3)n2)cc1S(N)(=O)=O` gave a remaining activity of 125%.
With `NCCNc1ncc(C(N)=O)c(Nc2cccc(C(F)(F)F)c2)n1` the remaining activity was 95.1%.
The remaining activity of `COc1cc2ncnc(Nc3ccc(Oc4ccccc4)cc3)c2cc1OC` is reported as 103%.
`C#Cc1cccc(Nc2ncnc3cc(OCCOC)c(OCCOC)cc23)c1` has a remaining activity of 122%.
For `CN(C)c1ccc(C=C2C(=O)Nc3ccccc32)cc1`, the remaining activity was 93.1%.
`O=C(O)c1ccc2c3c1cccc3c(=O)n1c3ccccc3nc21` has a remaining activity of 102%.
For `O=C1NC(=O)C(c2cn(CCCn3ccnc3)c3ccccc23)=C1Nc1ccccc1`, the remaining activity was 74.9%.
`Cn1sc(=O)n(Cc2ccccc2)c1=O` gave a remaining activity of 94%.

Block 4
SMILES: CC(=O)N[C@@H](Cc1c[nH]c2ccccc12)C(=O)N[C@@H](CCC(=O)C=[N+]=[N-])C(=O)OC(C)C
Species: mouse, EL4 tumour-bearing
Matrix: EL4 tumour
Dose: dose not given
Reference: vehicle
The “log2 fold change” was 0.823 (refers to: ribulose/xylulose).
refers to: N-acetyltaurine — “log2 fold change”: -1.
It gave 0.497 for “log2 fold change” (refers to: 2-aminoadipate).
It gave 1.75 for “log2 fold change” (refers to: fructose).
The “log2 fold change” was -0.45 (refers to: biliverdin).
For refers to: tricarballylate: “log2 fold change” read 0.943.
It gave -0.0245 for “log2 fold change” (refers to: N-acetylarginine).
The “log2 fold change” was 0.473 (refers to: 2'-deoxycytidine).

For quick reference, copied from above (block 4):
The “log2 fold change” was 0.473 (refers to: 2'-deoxycytidine).
For refers to: tricarballylate: “log2 fold change” read 0.943.
The “log2 fold change” was 0.823 (refers to: ribulose/xylulose).
refers to: N-acetyltaurine — “log2 fold change”: -1.
